Results of several laboratories.
Each line is one published result; not all experiments were run side by side. Several values in a cell are separate wells, animals, samples, runs or records. ± marks the error that the study gave.

CN[C@H](CC(C)C)C(=O)N[C@H]1C(=O)N[C@@H](CC(N)=O)C(=O)N[C@H]2CN[C@H]3C(=O)N[C@H](C(=O)N[C@H](C(=O)NCCCNC(=N)N)c4cc(O)cc(O)c4-c4cc3ccc4O)[C@H](O)c3ccc(c(Cl)c3)Oc3cc2cc(c3O[C@@H]2O[C@H](CO)[C@@H](O)[C@H](O)[C@H]2O[C@H]2C[C@](C)(NCc3ccc(-c4ccc(Cl)cc4)cc3)[C@H](O)[C@H](C)O2)Oc2ccc(cc2Cl)[C@H]1O
Tmax (mouse; intravenous, 10 mg/kg): 16.8 min

O=S(=O)(N[C@H]1CCC[C@@H](N2c3ccccc3CCc3ccccc32)[C@@H]1O)c1ccc(OC(F)(F)F)cc1
Tmax (mouse, plasma; oral, 100 mg/kg, suspension): 240 min

Cc1[nH]nc2c1N=C(c1ccccc1Cl)c1cnc(N3CCOCC3)cc1N2
Tmax (nude mouse HCC1806 xenograft, plasma; oral, 10 mg/kg once daily): 60 min

O=C(NS(=O)(=O)c1cccs1)c1cc2ccccc2n1Cc1ccc(Br)c2ccccc12
Tmax (mouse, plasma; oral, 1 mg/kg): 15 min

Cc1nn(-c2nc3c(F)cc(F)cc3s2)c(O)c1C(c1ccc(C(F)(F)F)cc1)c1c(C)nn(-c2nc3c(F)cc(F)cc3s2)c1O
Tmax (ICR mouse, plasma; oral, 50 mg/kg): 30 min and 60 min

CC[C@H](C)[C@H](NC(=O)[C@H](CC(C)C)NC(=O)[C@H](Cc1c[nH]cn1)NC(=O)[C@H](Cc1c[nH]cn1)NC(=O)[C@H](CC(C)C)NC(=O)[C@H](Cc1c[nH]c2ccccc12)NC(=O)[C@H](Cc1ccccc1)NC(=O)[C@H](CCCNC(=N)N)NC(=O)[C@H](CCCNC(=N)N)NC(=O)[C@H](CCCNC(=N)N)NC(=O)[C@H](CC(C)C)NC(=O)[C@H](CC(=O)O)NC(=O)[C@H](CCC(N)=O)NC(=O)[C@@H](NC(=O)[C@H](CO)NC(=O)[C@H](CCCCN)NC(=O)[C@@H](Cc1c[nH]c2ccccc12)NC(=O)[C@H](CC(C)C)NC(=O)[C@H](CC(=O)O)NC(=O)[C@H](Cc1c[nH]cn1)NC(=O)[C@H](CC(C)C)NC(=O)[C@@H](N)CC(C)C)[C@@H](C)CC)C(=O)N[C@@H](C)C(=O)N[C@@H](CCC(=O)O)C(=O)N[C@H](C(=O)N[C@@H](Cc1c[nH]cn1)C(=O)N[C@H](C(=O)N[C@@H](C)C(=O)N[C@@H](CCC(=O)O)C(=O)N[C@@H](Cc1ccc(O)cc1)C(N)=O)[C@@H](C)O)[C@@H](C)CC
Tmax (mouse, blood; subcutaneous): 10 min

C/C(N)=N/C(=N\S(=O)(=O)c1ccc(C(F)(F)F)cc1)N1C[C@H](c2ccccc2)C(c2ccc(Cl)cc2)=N1
Tmax (C57BL/6 mouse, adipose tissue; intravenous, 10 mg/kg): 120 min

CC(C)OCCOCc1ccc(OCC(O)CN(N=O)C(C)C)cc1 (stereo not shown)
Tmax (mouse NMRI, blood; oral, repeated dosing): 30 min

CN[C@H](CC(C)C)C(=O)N[C@H]1C(=O)N[C@@H](CC(N)=O)C(=O)N[C@H]2C(=N)N[C@H]3C(=O)N[C@H](C(=O)N[C@H](C(=O)NCCC[N+](C)(C)C)c4cc(O)cc(O)c4-c4cc3ccc4O)[C@H](O)c3ccc(c(Cl)c3)Oc3cc2cc(c3O[C@@H]2O[C@H](CO)[C@@H](O)[C@H](O)[C@H]2O[C@H]2C[C@](C)(NCc3ccc(-c4ccc(Cl)cc4)cc3)[C@H](O)[C@H](C)O2)Oc2ccc(cc2Cl)[C@H]1O
Tmax (mouse; intravenous, 50 mg/kg): 13.2 min

O=C(Cc1ccc(OCc2ccccc2)cc1)NC1(C(=O)O)CCN(C(=O)c2ccc(-c3cccc(Cl)c3)cc2)CC1
Tmax (mouse BALB/c female; intraperitoneal, 20 mg/kg): 40 ± 17.3 min

For quick reference, copied from above:
C/C(N)=N/C(=N\S(=O)(=O)c1ccc(C(F)(F)F)cc1)N1C[C@H](c2ccccc2)C(c2ccc(Cl)cc2)=N1
Tmax (C57BL/6 mouse, adipose tissue; intravenous, 10 mg/kg): 120 min
